# Experimental data of several laboratories.
# Each numbered part is a random draw from the data of one study; scales do not carry over between parts.

# Set 1
# Target: TAR DNA-binding protein 43, full length, His tag (TARDBP, Homo sapiens, UniProt Q13148, residues 1-414)
# Technique: RNA Bind-n-Seq
# Form: RNA
# Matrix: in vitro
# Concentration: 20 nM
# Setting: 6-mer, flanks averaged, single round
# With: 150 mM KCl
# Reference: input library
# Reading: higher = stronger binding
Strand,6-mer enrichment (R)
AGAAGU,0.856
AGAACG,0.984
UACGGU,0.772
GGUAGA,1.58
AGUCUA,0.581
GACUAU,0.647
AUACGU,0.62

# Set 2
# Target: Interferon regulatory factor 7, full length, phosphomimetic (IRF7, Homo sapiens, UniProt Q92985, residues 1-503, S101K/S471D/S472D/S475D/S476D/S477D/S483D/S484D/S487D)
# Technique: protein-binding microarray
# Form: double-stranded DNA, one strand shown
# Matrix: in vitro
# Concentration: 250 nM
# Setting: 60-bp whole probe
# With: salmon DNA 0.4 mg/ml
# Reference: random background probes
# Reading: higher = stronger binding
# Constant ends, left off below: GCCTAGCAC … GTCTTGATTCGCTTGACGCTGCTG
# Construct (chain): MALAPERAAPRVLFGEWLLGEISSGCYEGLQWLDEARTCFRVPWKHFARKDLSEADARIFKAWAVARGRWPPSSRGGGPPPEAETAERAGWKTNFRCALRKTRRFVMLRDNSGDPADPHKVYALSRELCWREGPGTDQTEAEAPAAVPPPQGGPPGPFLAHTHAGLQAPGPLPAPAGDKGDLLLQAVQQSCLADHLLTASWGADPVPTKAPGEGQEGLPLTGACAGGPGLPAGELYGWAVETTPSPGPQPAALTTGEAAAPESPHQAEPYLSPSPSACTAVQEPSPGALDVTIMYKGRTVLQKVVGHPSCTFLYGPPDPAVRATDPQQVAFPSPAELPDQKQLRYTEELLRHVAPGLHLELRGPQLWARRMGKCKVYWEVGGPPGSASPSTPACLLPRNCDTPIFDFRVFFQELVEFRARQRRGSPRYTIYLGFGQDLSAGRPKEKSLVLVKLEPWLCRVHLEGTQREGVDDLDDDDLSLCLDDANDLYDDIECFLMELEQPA
Strand,log fluorescence
ACCAGTTTTCTTTTCATTACGTGCTAG,3.45 z-score
GACGGGTTCGGGTATCGGGACGTGCTA,0.841 z-score
TTAGGTATCCTTCTCCTCTAGTGCTAG,0.971 z-score
GATGGACTGGACTTTCGGGACGTGCTA,-0.622 z-score
TTAGATATCAGTATCGATTAGTGCTAG,0.764 z-score
TTAGAACTGAGGATCGATTAGTGCTAG,0.0845 z-score
GACGAACTGAGTATCCAGACGTGCTAG,-0.152 z-score
TTAGCACTGCTTATCCTTTAGTGCTAG,-0.131 z-score
AGACTTCTCCATTTTTCTAGGTGCTAG,0.341 z-score

# Set 3
# Target: RING finger protein unkempt homolog, zinc fingers 1-6, GST-SBP tag (UNK, Homo sapiens, UniProt Q9C0B0, residues 30-357)
# Sequence of UniProt Q9C0B0 (30-357, looked up): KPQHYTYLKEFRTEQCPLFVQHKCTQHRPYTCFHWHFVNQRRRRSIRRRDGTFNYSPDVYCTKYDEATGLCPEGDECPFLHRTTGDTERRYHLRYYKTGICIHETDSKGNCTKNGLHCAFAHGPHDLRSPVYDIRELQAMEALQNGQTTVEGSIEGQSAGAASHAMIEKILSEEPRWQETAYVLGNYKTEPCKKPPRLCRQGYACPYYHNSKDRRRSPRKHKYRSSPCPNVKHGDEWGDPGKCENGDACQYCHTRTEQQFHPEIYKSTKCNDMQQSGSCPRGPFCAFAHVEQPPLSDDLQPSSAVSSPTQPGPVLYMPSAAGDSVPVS
# Technique: RNA Bind-n-Seq
# Form: RNA
# Matrix: in vitro
# Concentration: not given
# Setting: RNA with constant flanks, human and mouse sites, ends assumed
# Reference: input RNA pool
# Reading: higher = stronger binding
# Constant ends, left off below: GGGAGUUCUACAGUCCGACGAUC … CAACAGAGGAUUGAGCAUCA
Strand,bound/input enrichment [ratio]
CAGAUCAGUAAGCAAGGUCUUUGUGGGGCAGUUGUCGACCUCACCAAGACAUCUGAACAUAUUCAGUUUUCAGUAGAAGAACUUAAAAAUUUGUUCACAUUACAUGAAAGUUCAGAUUGU,0.177
CCUGGAUGGAACGAGGCAGCAUCACAGUAAACCUUUGGGGACCAUGUAGCCAGCUGGCAUCCUAGGGAACUCCUUCCCAUAGCCCGACUGCUGUCACAGCUAAGCUUCUCACAGGACUGU,0.21
UUGAAGAAAUCAGCAUUUCUAACAGAAGUGAGCCAAAAGGAAAAUUACGCCGGAGCAAAGUUCAGUGACCCACCUUCCCCUAGUGUCCUCCCAAAGCCUCCGAGUCACUGGAUGGGAAGU,0.175
CUCUGGGCUGUACCAAUGAGGCAGAGCUGUCCAUGGGCCCAUGGCAGACCUGUGAGGAAGACCCAGAACUGAAUACUCCCACAGAUGUUGUGGCUGAUGCUGAUGCCCGUCAUUGGUUAC,0.204
GCUGUCUGAACUGAACAGACCGAAGAGAUGUGCUAGAGAGAAGCCGCCUCCACAGUCACCCAUUUCAUUGCUGUCUACGAAAGAGACGUGAGACUCACACGCUGUUCUCGCUUUCUCCCC,0.165

# Other studies, line by line
Molecule,target,assay,test system,setting,how to read,measurement,result
"PhoQ, residues 284 288 289 292 302 303 SLKLQV","PhoP, residues 12 14 15 18 19 LHHSG (Escherichia coli, UniProt P23836)","Sort-seq, item: YFP reporter",E. coli,"PhoQ-PhoP variant library, with: 10 µM Mg2+","reference: high Mg2+ state, higher = stronger signaling",fold induction,0.801

# Repeated from above (set 3):
Strand,bound/input enrichment [ratio]
CAGAUCAGUAAGCAAGGUCUUUGUGGGGCAGUUGUCGACCUCACCAAGACAUCUGAACAUAUUCAGUUUUCAGUAGAAGAACUUAAAAAUUUGUUCACAUUACAUGAAAGUUCAGAUUGU,0.177
CCUGGAUGGAACGAGGCAGCAUCACAGUAAACCUUUGGGGACCAUGUAGCCAGCUGGCAUCCUAGGGAACUCCUUCCCAUAGCCCGACUGCUGUCACAGCUAAGCUUCUCACAGGACUGU,0.21
UUGAAGAAAUCAGCAUUUCUAACAGAAGUGAGCCAAAAGGAAAAUUACGCCGGAGCAAAGUUCAGUGACCCACCUUCCCCUAGUGUCCUCCCAAAGCCUCCGAGUCACUGGAUGGGAAGU,0.175
